Measurements from different studies.
Compare with care: the assays were run in different laboratories. ± marks the error that the study gave.
Cell line: Caco-2

Compound	assay	setting	scale	endpoint	result
N#Cc1cccc(-c2ccc(=O)n(Cc3cccc(-c4ncc(OCC5CCN(CC(=O)N6CCN(c7ccc8c(c7)C(=O)N(C7CCC(=O)NC7=O)C8=O)CC6)CC5)cn4)c3)n2)c1 (centres unmarked)	transwell monolayer	2 µM, 120 min, pH 7.4, 0.1% DMSO, together with: tariquidar 5 µM	–	Papp A-B	0.05 ± 0.02 ×10⁻⁶ cm/s
CC1CN(C(C)CO)C(=O)c2cccc(N(C)C(=O)c3ccncc3)c2OC1CN(C)Cc1ccc(Oc2ccccc2)cc1 (centres unmarked)	–	time not given, apical pH 7.4, basolateral pH 7.4	–	mass recovery	74.6 ± 1.8%
COc1cc(-c2cncc(-c3ccc(C4CCN(C)CC4)cc3)c2C)cc(OC)c1OC	–	5 µM, 120 min, pH 7.4	–	Papp B-A	8.1 ×10⁻⁶ cm/s
CC(C)OC(=O)c1ccc(O)cc1	–	5 µM, 60 min, A-B direction	–	hydrolysed compound	10.4 ± 1.9%
CNC(=O)C[C@H](Cc1ccc(C#N)cc1)NC(=O)c1cc(-c2ccc(CN[C@H](C)c3ccc(C)cc3)o2)ccc1Cl	–	–	relative to: Papp B-A over Papp A-B	efflux ratio	1.6
CO[C@@H](C[C@H]1C(C)=CC[C@@H]2[C@]3(C)C[C@H](O[C@@H]4O[C@@H](C)[C@H](O)[C@@H](O)[C@H]4O)[C@@H](O)C(C)(C)[C@H]3CC[C@]21C)[C@H](N)C(=O)O	transwell permeability	5 µM, 1 h	–	recovery	92%
CCCCC(CC)CNC(=N)NC(=N)NCCCCCCCCNC(=N)NC(=N)NCC(CC)CCCC (centres unmarked)	–	5 µM, 2 h, basolateral to apical	–	recovery	24.3%
CC(=O)N1CCC[C@H]1C(=O)N[C@@H](CC(C)C)C(=O)N[C@@H](Cc1cncn1CCCCCCCCc1ccccc1)C(=O)N[C@@H](CO)C(=O)N[C@H](C(N)=O)[C@@H](C)OP(=O)(O)O	–	10 µM, 2 h	–	recovery B-A	72.1%
CNC(=N)NC(=N)NCCCCCCNC(=N)NC(=N)NC	–	5 µM, 2 h, basolateral to apical	–	recovery	87.9%
CC[C@H](C)[C@@H](C(=O)N[C@@H](Cc1ccc(O)cc1)C(=O)N1CCC[C@H]1C(=O)N[C@@H](Cc1ccccc1)C(=O)O)n1cc(C(Cc2ccc(O)cc2)NC(=O)[C@@H](NC(=O)[C@H](CCCNC(=N)N)NC(=O)[C@@H](N)CC(=O)O)C(C)C)nn1 (some centres unmarked)	cell growth or viability, MTT	100 µM, 48 h	–	viability	74.4%
O=C(Oc1ccccc1)c1ccc(O)cc1	–	5 µM, 60 min, A-B direction	–	hydrolysed compound	70 ± 0.7%
c1cc2nc(c1)-c1cccc(n1)CCCc1ccc(cc1)OCCCCCCOc1ccc(cc1)CCC2	cell growth or viability, MTT	200 µM, 48 h	–	viability	52.5%
CCCCC(CC)CNC(=N)NC(=N)NCCC (centres unmarked)	–	5 µM, 2 h, apical to basolateral	–	recovery	< 57.1%
COc1cc(-c2cncc(-c3ccc(N4CCN(C)CC4)cc3)c2C)cc(OC)c1OC	–	5 µM, 120 min, pH 7.4	–	Papp B-A	14.5 ×10⁻⁶ cm/s
CCC(C)OC(=O)c1ccc(O)cc1 (centres unmarked)	–	5 µM, 60 min, A-B direction	–	hydrolysed compound	5.2 ± 0.4%
CC(C)C(C)NC(=O)COC(=O)c1cc2c(s1)CCC2 (centres unmarked)	–	25 µM, 2 h	–	Papp	2.3 ×10⁻⁶ cm/s
CCC(CC)CNC(=N)NC(=N)NCCCCCCNC(=N)NC(=N)NCC(CC)CC	–	5 µM, 2 h, basolateral to apical	–	recovery	75.3%

A few entries again:
Compound	assay	setting	scale	endpoint	result
COc1cc(-c2cncc(-c3ccc(C4CCN(C)CC4)cc3)c2C)cc(OC)c1OC	–	5 µM, 120 min, pH 7.4	–	Papp B-A	8.1 ×10⁻⁶ cm/s
COc1cc(-c2cncc(-c3ccc(N4CCN(C)CC4)cc3)c2C)cc(OC)c1OC	–	5 µM, 120 min, pH 7.4	–	Papp B-A	14.5 ×10⁻⁶ cm/s
